Results from different studies.
Numbered parts are unrelated; each lists some results of a single study. Changes are numbered by the printed parent chain.
UniProt Q14164, sequence (whole entry, looked up): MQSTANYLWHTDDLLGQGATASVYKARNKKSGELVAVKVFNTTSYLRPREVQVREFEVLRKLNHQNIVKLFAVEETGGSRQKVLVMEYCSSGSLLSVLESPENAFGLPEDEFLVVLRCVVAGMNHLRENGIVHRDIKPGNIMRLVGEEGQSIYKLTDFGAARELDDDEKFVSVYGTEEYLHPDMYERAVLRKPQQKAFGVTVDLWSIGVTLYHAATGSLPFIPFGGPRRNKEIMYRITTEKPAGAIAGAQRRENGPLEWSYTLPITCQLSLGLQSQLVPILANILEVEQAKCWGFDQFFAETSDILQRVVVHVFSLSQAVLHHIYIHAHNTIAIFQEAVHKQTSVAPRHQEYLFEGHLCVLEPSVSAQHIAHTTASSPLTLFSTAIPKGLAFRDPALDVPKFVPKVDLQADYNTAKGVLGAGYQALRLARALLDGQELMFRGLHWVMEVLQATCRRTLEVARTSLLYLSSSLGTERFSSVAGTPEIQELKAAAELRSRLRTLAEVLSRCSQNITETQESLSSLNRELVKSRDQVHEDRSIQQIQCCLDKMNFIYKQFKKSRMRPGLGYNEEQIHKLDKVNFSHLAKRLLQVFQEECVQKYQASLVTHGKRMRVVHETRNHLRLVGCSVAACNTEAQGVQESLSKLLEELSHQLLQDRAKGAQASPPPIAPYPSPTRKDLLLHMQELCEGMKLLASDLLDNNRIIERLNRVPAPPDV

Set 1
Target: tungstate, free oxyanion
Technique: microfluidic competitive inhibition
Medium: in vitro, cell-free expressed
Tested at: not given
Notes: derived from inhibition constants, unchanged parent 2230 nM
Direction: lower = stronger binding
Starting sequence: PafA, mature enzyme, eGFP fusion (Elizabethkingia meningoseptica, UniProt Q9KJX5); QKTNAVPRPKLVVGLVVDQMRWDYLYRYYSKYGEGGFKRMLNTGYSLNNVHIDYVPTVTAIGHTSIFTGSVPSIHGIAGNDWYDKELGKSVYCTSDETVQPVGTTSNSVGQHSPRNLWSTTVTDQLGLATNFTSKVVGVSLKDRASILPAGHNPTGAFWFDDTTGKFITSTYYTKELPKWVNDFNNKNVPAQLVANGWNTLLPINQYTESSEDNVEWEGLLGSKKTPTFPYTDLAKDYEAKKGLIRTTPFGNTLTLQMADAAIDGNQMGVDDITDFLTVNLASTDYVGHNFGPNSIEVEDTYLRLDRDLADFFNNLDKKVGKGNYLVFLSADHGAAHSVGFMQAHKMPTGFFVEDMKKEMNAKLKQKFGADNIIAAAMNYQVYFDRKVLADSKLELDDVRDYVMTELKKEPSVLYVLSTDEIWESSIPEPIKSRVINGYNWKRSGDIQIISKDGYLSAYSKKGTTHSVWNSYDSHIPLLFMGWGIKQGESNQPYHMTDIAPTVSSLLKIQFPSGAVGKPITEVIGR
| Change | oxyanion analog dissociation constant [µM] |
| --- | --- |
| V516A | 1.57 |
| T174G | 2.36 |
| V137A | 2.51 |
| K358V | 2.52 |
| G35A | 2.25 |
| D275V | 1.31 |
| V435A | 1.91 |
| W423V | 2.16 |

Set 2
Target: UDP-N-acetylglucosamine--peptide N-acetylglucosaminyltransferase 110 kDa subunit (OGT, Homo sapiens, UniProt O15294)
UniProt O15294, sequence (whole entry, looked up): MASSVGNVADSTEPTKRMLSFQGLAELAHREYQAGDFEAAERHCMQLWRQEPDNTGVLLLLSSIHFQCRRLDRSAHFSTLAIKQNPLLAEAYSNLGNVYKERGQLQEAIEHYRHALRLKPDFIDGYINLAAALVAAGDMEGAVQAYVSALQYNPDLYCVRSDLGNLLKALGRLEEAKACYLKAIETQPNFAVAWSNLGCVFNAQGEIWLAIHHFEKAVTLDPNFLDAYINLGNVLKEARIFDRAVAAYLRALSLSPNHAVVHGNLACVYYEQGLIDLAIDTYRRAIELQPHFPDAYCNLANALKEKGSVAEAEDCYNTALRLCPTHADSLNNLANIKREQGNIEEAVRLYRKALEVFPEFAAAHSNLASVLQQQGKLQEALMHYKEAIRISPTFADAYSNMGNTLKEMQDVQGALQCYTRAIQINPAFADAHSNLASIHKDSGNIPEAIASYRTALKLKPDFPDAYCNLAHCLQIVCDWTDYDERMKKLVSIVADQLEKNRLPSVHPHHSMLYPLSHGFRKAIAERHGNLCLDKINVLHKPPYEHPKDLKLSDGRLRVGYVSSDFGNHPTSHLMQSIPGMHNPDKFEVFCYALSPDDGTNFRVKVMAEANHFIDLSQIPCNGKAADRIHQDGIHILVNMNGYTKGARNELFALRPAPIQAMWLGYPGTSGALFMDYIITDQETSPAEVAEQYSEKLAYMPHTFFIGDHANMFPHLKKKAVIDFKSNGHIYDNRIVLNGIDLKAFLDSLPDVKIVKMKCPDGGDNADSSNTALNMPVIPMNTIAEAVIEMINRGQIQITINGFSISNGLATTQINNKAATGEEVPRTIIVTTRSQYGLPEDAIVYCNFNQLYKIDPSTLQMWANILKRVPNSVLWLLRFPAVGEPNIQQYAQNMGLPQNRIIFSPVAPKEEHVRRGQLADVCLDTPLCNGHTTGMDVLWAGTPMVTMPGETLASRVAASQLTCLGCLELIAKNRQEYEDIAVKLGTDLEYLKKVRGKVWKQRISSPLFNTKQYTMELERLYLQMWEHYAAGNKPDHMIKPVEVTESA
Read-out: binding
Technique: phage display NGS
Molecule type: peptide
Tested at: concentration not given
Relative to: input library
| Molecule | enrichment fold change |
| --- | --- |
| SWQPYQHHIWRMTYP | 4.96 |
| FNHRNHHEPHRHHNA | 7.78 |
| ENTLWSPRYQIKWAQ | 3.78 |
| YERDYQHFMPQYQIM | 2.39 |
| HWHSAAIDPHRHRGE | 5.06 |
| AHHQGAVDHMRTHHS | 3.82 |
| HQLDQRRGHVHGHME | 4.96 |
| TYWHRDHTQTHIPSY | 7.01 |

Set 3
Target: CCNA2, cyclin fold, Cln2 fusion (human)
Technique: yeast growth competition, sequencing
Medium: yeast
Notes: strong parent motif
Relative to: not given
Direction: higher = stronger binding
Starting sequence: viral docking peptide; YKVKRRLVFGADD; partner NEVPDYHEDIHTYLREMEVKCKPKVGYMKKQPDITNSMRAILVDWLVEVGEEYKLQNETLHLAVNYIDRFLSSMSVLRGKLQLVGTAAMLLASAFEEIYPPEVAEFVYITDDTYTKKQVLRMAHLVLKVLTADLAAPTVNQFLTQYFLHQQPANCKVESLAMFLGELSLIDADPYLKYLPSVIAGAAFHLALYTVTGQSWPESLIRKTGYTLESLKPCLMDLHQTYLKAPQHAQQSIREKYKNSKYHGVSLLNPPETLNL
| Change | normalised enrichment score |
| --- | --- |
| YKVARRLVFGADD [K4A] | 4.71 |
| YKVCRRLVFGADD [K4C] | 5.61 |
| YKVKRRLVPGADD [F9P] | 0.365 |
| YLVKRRLVFGADD [K2L] | 6.07 |
| YKVKRRLVFGAQD [D12Q] | 6.41 |
| YKVKRRLPFGADD [V8P] | 5.07 |
| YKLKRRLVFGADD [V3L] | 4.62 |
| YQVKRRLVFGADD [K2Q] | 5.97 |

Further values, each from its own experiment
| Compound | target | assay | conditions | how to read | quantity | value |
| --- | --- | --- | --- | --- | --- | --- |
| N/C(=N\[N+](=O)[O-])N/N=C\c1ccc(-c2cccc([N+](=O)[O-])c2)o1 | Inhibitor of nuclear factor kappa-B kinase subunit epsilon (IKBKE, Homo sapiens, UniProt Q14164) | enzyme activity, inhibitor | 0.5 µM | relative to: control | remaining activity | 101% |

Repeated from above (set 3):
| Change | normalised enrichment score |
| --- | --- |
| YKLKRRLVFGADD [V3L] | 4.62 |
